# Experimental data collected from several papers.
# Parts stem from different laboratories: compare values within a part only.

# Series 1
# Target: Replicase polyprotein 1ab, main protease (rep, Severe acute respiratory syndrome coronavirus 2, UniProt P0DTD1)
# Effect on: enzyme activity
# Action: inhibitor
# Tested at: 20 µM
# Notes: hit confirmation, no DTT
Structure (SMILES),inhibition
CCOC(=O)Cc1ccc(-c2ccccc2)cc1,99.8%
COc1ccc2[nH]c([S+]([O-])Cc3ncc(C)c(OC)c3C)nc2n1 (centres unmarked),90.2%
O=C1C2CC=CCC2C(=O)N1SC(Cl)(Cl)Cl (centres unmarked),100%
Cn1sc(=O)n(Cc2ccccc2)c1=O,110%

# Series 2
# Target: Replicase polyprotein 1ab, nsp13 helicase (rep, Severe acute respiratory syndrome coronavirus 2, UniProt P0DTD1)
# Action: inhibitor
# Tested at: 20 µM
Compound,inhibition [%]
CCN(CC)CCNC(=O)c1ccccc1I,1
CNS(=O)(=O)CCc1ccc2[nH]cc(C3CCN(C)CC3)c2c1,0.51
CCCCCCCCCCCCCC(=O)OC(C)C,-0.42
CCc1cc(-c2n[nH]c(C)c2-c2ccc3c(c2)OCCO3)c(O)cc1O,2.47
CCCC[C@]1(CC)CS(=O)(=O)c2cc(CNC(CC(=O)O)CC(=O)O)c(OC)cc2[C@@H](c2ccccc2)N1,4.16
c1ccc(CCCCN2CCC(c3ccccc3)CC2)cc1,2.76
CNc1cc2[nH]c(=O)n(-c3ccc(NC(=O)NS(=O)(=O)c4ccc(Cl)s4)cc3)c(=O)c2cc1F,0.4
CN1CCN(c2ccc3ccccc3n2)CC1,2.77
Cc1c(N2C(=O)[C@@H]3[C@H](O)CCN3C2=O)ccc(C#N)c1Cl,8.82
C=C1CC[C@H](O)C/C1=C/C=C1\CCC[C@]2(C)[C@@H]([C@H](C)CCCC(C)C)CC[C@@H]12,-12
COc1cccc(CN(C(=O)CC(C)(C)C)[C@H]2C[C@@H](C(=O)N3CCNCC3)N(Cc3ccc4c(c3)OCO4)C2)c1,4.85
CN(C)CCOC(C)(c1ccccc1)c1ccccn1 (centres unmarked),2.3
CC(C)(O)c1ccn2c(-c3ccc(F)c(-c4ccc(F)cc4C#N)c3)cnc2c1F,10.6
CN(CCOc1ccc(C[C@H](Nc2ccccc2C(=O)c2ccccc2)C(=O)O)cc1)c1ccccn1,16.2
N[C@@H](Cc1ccc(B(O)O)cc1)C(=O)O,5.43
NC(=O)[C@@H](CC1CC1)[C@@H](CCC(F)(F)F)C(=O)N[C@H]1N=C(c2ccccc2)c2cccc(F)c2NC1=O,3.91
C(#Cc1nc2ncccc2nc1OCCN1CCCC1)c1ccccc1,14.9
COC[C@@H](c1ccc(C(F)(F)F)cc1)N1CCN(C2(C)CCN(C(=O)c3c(C)ncnc3C)CC2)C[C@@H]1C,2.14
Cn1ccc2cc(NC(=O)Nc3cccnc3)ccc21,6.46
CCCC[P+](CCCC)(CCCC)Cc1ccc(NC(=O)[C@H](Cc2ccc3ccccc3c2)NC(=NC2CCCCC2)NC2CCCCC2)cc1,6.14
Cc1cc([C@@H](C)Nc2ccccc2C(=O)O)c2nc(N3CCOCC3)cc(=O)n2c1,14.1
NNC(=O)CSc1nc2scc(-c3ccccc3)c2c(=O)n1-c1ccccc1,5.01
CO[C@@]1(NC(=O)Cc2cccs2)C(=O)N2C(C(=O)O)=C(COC(N)=O)CS[C@@H]21,6.27
Nc1ccc(C(=O)OCC(O)CO)cc1 (centres unmarked),5.08
CNC(=O)c1cc2c(cn1)[nH]c1ccccc12,6.48

# Series 3
# Target: Phosphate system positive regulatory protein PHO4, full length, GST-tagged (PHO4, Saccharomyces cerevisiae, UniProt P07270, residues 1-312)
# Technique: competition protein-binding microarray
# Form: double-stranded DNA, one strand shown
# Matrix: in vitro
# Tested at: 2 µM
# Notes: whole 60-bp probe, lowest competitor level
# With: Cbf1 competitor, 0.05 µM
# Direction: higher = stronger binding
# Construct (chain): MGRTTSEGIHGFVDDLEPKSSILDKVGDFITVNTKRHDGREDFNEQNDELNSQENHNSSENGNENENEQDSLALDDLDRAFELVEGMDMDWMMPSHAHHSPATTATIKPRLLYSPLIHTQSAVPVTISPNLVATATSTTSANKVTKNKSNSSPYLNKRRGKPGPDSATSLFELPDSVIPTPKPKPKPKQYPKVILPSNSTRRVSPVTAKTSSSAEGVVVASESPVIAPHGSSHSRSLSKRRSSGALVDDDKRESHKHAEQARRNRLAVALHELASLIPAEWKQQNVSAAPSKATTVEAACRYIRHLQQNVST
Sequence,fluorescence intensity
CATACCCAACCTTGGGCAGTGGGTGAAGATATTTGTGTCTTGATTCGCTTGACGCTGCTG,3390 a.u.
GGTGTGCGGTTGCGGGGCGTGGGTATGCGCGCCGTTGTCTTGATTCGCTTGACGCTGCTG,9550 a.u.
GTCTTGTCTCATTGTTAAGTGGGTGTCCCCACTTCAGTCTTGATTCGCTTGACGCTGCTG,4840 a.u.
TATTTTGGAGTTAGGGTTGTGATGCTTGACGATAACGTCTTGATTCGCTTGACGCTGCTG,4460 a.u.
CATACCCAACCTTGAACAGTGGGTGAAGATATTTGTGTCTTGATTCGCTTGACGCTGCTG,3650 a.u.
TGCTTCGTTTTTTGCCACGTGTCGGATCTGGCCTATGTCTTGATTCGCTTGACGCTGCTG,19300 a.u.
CTTCCGATAACTCCGCACGGCAAGGAGTAGTGGCGAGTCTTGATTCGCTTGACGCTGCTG,5130 a.u.
CGTCCTAGCGATTGAAGGGTGGGTGCCATGAGGAAGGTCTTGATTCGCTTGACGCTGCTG,6990 a.u.

# Series 4
# Target: Sal-like protein 4, full length isoform A (SALL4, Homo sapiens, UniProt Q9UJQ4, residues 1-1053)
# UniProt Q9UJQ4, sequence (whole entry, looked up): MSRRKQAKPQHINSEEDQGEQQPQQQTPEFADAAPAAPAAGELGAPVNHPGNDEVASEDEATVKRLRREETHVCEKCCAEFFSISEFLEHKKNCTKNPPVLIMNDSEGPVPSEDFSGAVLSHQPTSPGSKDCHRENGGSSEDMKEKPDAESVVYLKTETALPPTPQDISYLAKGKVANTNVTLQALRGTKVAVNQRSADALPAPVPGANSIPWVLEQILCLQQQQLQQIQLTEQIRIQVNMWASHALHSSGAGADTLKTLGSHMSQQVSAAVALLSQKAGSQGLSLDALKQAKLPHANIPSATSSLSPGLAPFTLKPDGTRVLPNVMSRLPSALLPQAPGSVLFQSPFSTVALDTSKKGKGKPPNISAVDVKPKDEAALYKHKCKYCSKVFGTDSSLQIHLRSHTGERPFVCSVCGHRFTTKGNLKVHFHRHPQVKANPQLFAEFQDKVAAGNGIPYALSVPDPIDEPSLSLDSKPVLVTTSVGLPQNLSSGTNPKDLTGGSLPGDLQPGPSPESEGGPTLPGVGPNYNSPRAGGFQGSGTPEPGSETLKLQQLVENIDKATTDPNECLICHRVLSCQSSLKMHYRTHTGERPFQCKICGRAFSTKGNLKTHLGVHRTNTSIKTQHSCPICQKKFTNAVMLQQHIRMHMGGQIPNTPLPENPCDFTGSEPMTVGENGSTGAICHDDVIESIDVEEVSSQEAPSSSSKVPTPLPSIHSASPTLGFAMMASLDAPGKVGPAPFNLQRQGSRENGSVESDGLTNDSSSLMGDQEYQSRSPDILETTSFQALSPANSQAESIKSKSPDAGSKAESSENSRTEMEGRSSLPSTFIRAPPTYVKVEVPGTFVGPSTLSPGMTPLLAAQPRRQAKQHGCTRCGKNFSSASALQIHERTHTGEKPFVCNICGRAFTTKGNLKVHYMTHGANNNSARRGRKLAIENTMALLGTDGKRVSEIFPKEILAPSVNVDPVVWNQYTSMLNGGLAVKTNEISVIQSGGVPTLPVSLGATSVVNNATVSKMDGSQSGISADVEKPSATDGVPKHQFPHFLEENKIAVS
# Technique: universal PBM
# Form: double-stranded DNA, one strand shown
# Matrix: in vitro
# Tested at: 600 nM
# Notes: 8-mer, flanks averaged, mean of replicates
# Direction: higher = stronger binding
Sequence,E-score
TGATCAAA,0.085
TTACCTAA,0.197
ATTACTCA,0.266
CGGATGAG,-0.127
AGCCTTAC,-0.158
GGCGTACA,-0.226
ATCCATGG,-0.216
AACGTAAG,0.0524

# Series 5
# Cell line: HEK-293T/ACE2
# Tested at: concentration not given
# Time: 16 (unit not given)
# Baseline: vehicle
Structure (SMILES),viability
C[C@H]1CNCCc2ccc(Cl)cc21,90.5%
Nc1nc(Cl)nc2c1ncn2[C@@H]1O[C@H](CO)[C@@H](O)[C@@H]1F,84.6%
CN1CCN2c3ncccc3Cc3ccccc3C2C1 (centres unmarked),107%
CC(=O)O[C@H]1Cc2ccccc2N(C(N)=O)c2ccccc21,103%
CCCCCCC(=O)O[C@H]1CC[C@H]2[C@@H]3CCC4=CC(=O)CC[C@]4(C)[C@H]3CC[C@]12C,102%

# A few entries again (series 2):
Compound,inhibition [%]
NNC(=O)CSc1nc2scc(-c3ccccc3)c2c(=O)n1-c1ccccc1,5.01
CO[C@@]1(NC(=O)Cc2cccs2)C(=O)N2C(C(=O)O)=C(COC(N)=O)CS[C@@H]21,6.27
Nc1ccc(C(=O)OCC(O)CO)cc1 (centres unmarked),5.08
